{"data": "Assay results from different studies", "note": "Compare with care: the assays were run in different laboratories. “And” joins repeats or separate records; there may be more than shown. Numbers after ± are the reported error."}
{"SMILES": "CCc1nn(C)c2nc(-c3ccc(C(=O)O)cc3)nc(NCc3ccc(F)cc3)c12", "test system": "NSG mice", "conditions": "dose not given, day 3 of treatment", "endpoint": "body weight", "result": "21.4 g and 20.3 g and 22.1 g and 19.8 g"}
{"SMILES": "Cc1cc(/N=N/c2ccc(S(=O)(=O)Nc3ccccn3)cc2)c(N)cc1O", "target or system": "HBL-1", "conditions": "0.1 µM, 120 h", "endpoint": "viability", "result": "125%"}
{"SMILES": "COc1ccc(CNc2nc(-c3ccc(C(=O)O)cc3)nc3c2c2ccccc2n3C)cc1Cl", "test system": "NSG mice", "conditions": "dose not given, day 5", "endpoint": "body weight", "result": "24.9 g and 21 g and 25.4 g and 24.2 g"}
{"SMILES": "CCCCc1nc2cc(/C=C/C(=O)NO)ccc2n1CCN(CC)CC", "test system": "mouse, HEL 92.1.7 subcutaneous xenograft", "conditions": "125 mg/kg every other day, day 17", "how to read": "relative to: baseline", "endpoint": "body weight", "result": "97.4%"}
{"SMILES": "CCc1cc(C(=O)NC)c2nccc(N3CCc4c(cc(Cn5ccnc5)cc4-c4cn(C)nc4C(F)(F)F)C3=O)c2c1", "test system": "Sprague Dawley rat", "conditions": "oral, 100 mg/kg once daily, day 1, 7-day toxicology study", "endpoint": "body weight", "result": "222 ± 4.8 g"}
{"SMILES": "COc1cc(N2CCC(N3CCN(C)CC3)CC2)ccc1Nc1ncc(Cl)c(Nc2ccccc2P(C)(C)=O)n1", "test system": "nude mice, NCI-H3122 xenograft", "conditions": "intraperitoneal, 10 mg/kg every other day, day 3", "endpoint": "body weight", "result": "23.8 g and 24 g and 20.5 g and 23 g and 23.4 g"}
{"SMILES": "O=C(O)CSc1nnc(Br)n1-c1ccc(C2CC2)c2ccccc12", "test system": "KM mouse, chronic hyperuricaemia model", "conditions": "dose not given, day 30", "endpoint": "body weight", "result": "43 g and 39.8 g and 38.6 g and 35.4 g and 36.8 g and 38.8 g"}
{"SMILES": "Cc1cnc(Nc2ccc(OCCN3CCCC3)cc2)nc1Nc1cccc(S(=O)(=O)NC(C)(C)C)c1", "test system": "BALB/c mice, rhEPO-induced polycythemia", "conditions": "120 mg/kg, day 1", "endpoint": "body weight", "result": "18.3 g and 19.4 g and 18.4 g and 17.7 g and 17.9 g and 19.3 g"}
{"SMILES": "Cc1nc(-c2ccc(OCC(C)C)c(C#N)c2)sc1C(=O)O", "test system": "KM mouse, chronic hyperuricaemia model", "conditions": "dose not given, day 25", "endpoint": "body weight", "result": "33.4 g and 38.2 g and 41 g and 35.6 g and 39.4 g and 44.2 g"}
{"SMILES": "CC(C(=O)Nc1cccc(/N=C/c2c(O)ccc3ccccc23)c1)c1ccccc1 (centres unmarked)", "target or system": "HBL-1", "conditions": "0.5 µM, 120 h", "endpoint": "viability", "result": "106%"}
{"SMILES": "C1=C/COCc2cc(ccc2OCCN2CCCC2)Nc2nccc(n2)-c2cccc(c2)COC/1", "test system": "BALB/c mice, rhEPO-induced polycythemia", "conditions": "120 mg/kg, day 4", "endpoint": "body weight", "result": "19.9 g and 18.1 g and 19.1 g and 18.9 g and 18.8 g and 18 g"}
{"note": "Repeated from above:"}
{"SMILES": "Cc1cc(/N=N/c2ccc(S(=O)(=O)Nc3ccccn3)cc2)c(N)cc1O", "target or system": "HBL-1", "conditions": "0.1 µM, 120 h", "endpoint": "viability", "result": "125%"}
